Measured values pooled from the literature.
Compare with care: the assays were run in different laboratories. Numbers after ± are the reported error. Values after ≈ are worked out from the molar mass of the structure shown.
Organism: Acinetobacter baumannii

SMILES = CCc1cc(CCN)nc(-c2nc(=O)c3ccccc3s2)c1; assay = cell growth, inhibitor; test system = NCTC 13424 XDR; conditions = 5% CO2; quantity = EC50; value = > 100 µM
SMILES = CC[C@H](C)[C@H](NC(=O)CNC(=O)[C@H](CCCCN)NC(=O)[C@@H](NC(=O)[C@H](Cc1c[nH]c2ccccc12)NC(=O)[C@H](CCCCN)NC(=O)[C@H](Cc1ccccc1)NC(=O)[C@@H](NC(=O)[C@H](CCCCN)NC(=O)[C@H](CCCCN)NC(=O)[C@@H](NC(=O)[C@H](Cc1c[nH]c2ccccc12)NC(=O)[C@H](Cc1c[nH]c2ccccc12)NC(=O)[C@@H](N)CCCCN)[C@@H](C)CC)C(C)C)[C@@H](C)CC)C(=O)NCC(=O)N[C@@H](CCCCN)C(=O)N[C@@H](CCC(=O)O)C(=O)N[C@H](C(=O)N[C@H](C(=O)N[C@H](C(=O)N[C@@H](CCCNC(=N)N)C(=O)N[C@H](C(=O)NCC(=O)N[C@H](C(=O)N[C@@H](CCC(=O)O)C(=O)N[C@H](C(=O)N[C@@H](C)C(=O)N[C@@H](C)C(=O)N[C@@H](CS)C(=O)N[C@@H](CCCCN)C(=O)N[C@H](C(=O)N[C@@H](CCCCN)C(=O)NCC(=O)N[C@@H](CCC(=O)O)C(=O)N[C@@H](CS)C(N)=O)[C@@H](C)CC)[C@@H](C)CC)[C@@H](C)CC)[C@@H](C)O)[C@@H](C)CC)C(C)C)C(C)C; assay = colony count; test system = carbapenem-resistant, PBS; conditions = 20 µg/mL, 2 h; quantity = bactericidal rate; value = 100%
SMILES = Oc1c(Br)cc(Br)c2nc3cc(F)c(F)cc3nc12; assay = microbial growth; test system = 19606; quantity = IC50; value = > 100 µM
SMILES = CCc1cc(CCC(=O)O)nc(-c2nc(=O)c3ccc(F)cc3s2)c1; assay = growth inhibition; test system = AR Bank 0288, XDR; conditions = 5% CO2; quantity = EC50; value = > 100 µM
SMILES = CC[C@H](C)[C@H](NC(=O)[C@H](CCCCN)NC(=O)[C@H](CCCCN)NC(=O)[C@H](Cc1ccccc1)NC(=O)[C@H](Cc1ccccc1)NC(=O)[C@H](CCCCN)NC(=O)[C@H](CCCCN)NC(=O)[C@H](Cc1ccccc1)NC(=O)[C@H](CCCNC(=N)N)NC(=O)[C@@H](N)CCCCN)C(=O)N[C@@H](CCCCN)C(=O)N[C@@H](CCCCN)C(=O)N[C@@H](CO)C(=O)N[C@H](C(=O)N[C@@H](CCCCN)C(=O)N[C@@H](CCCCN)C(=O)N[C@@H](CCCNC(=N)N)C(=O)N[C@H](C(=O)N[C@@H](CCCCN)C(=O)N[C@@H](CCCCN)C(=O)N[C@@H](CC(C)C)C(=O)N[C@@H](Cc1ccccc1)C(=O)N[C@@H](CCCCN)C(=O)N[C@@H](CCCCN)C(=O)N1CCC[C@H]1C(=O)N[C@@H](CCCNC(=N)N)C(=O)N[C@H](C(=O)N[C@H](C(=O)N1CCC[C@H]1C(=O)N[C@H](C(=O)N[C@@H](CO)C(=O)N[C@H](C(=O)N1CCC[C@H]1C(=O)N[C@@H](Cc1ccccc1)C(=O)O)[C@@H](C)CC)[C@@H](C)CC)[C@@H](C)CC)C(C)C)C(C)C)C(C)C; test system = A1, clinical isolate; conditions = 20 h, 37 °C; quantity = MBC; value = 8 µg/mL (≈ 1.9 µM)
SMILES = C[C@H](N)[C@@H](CCCCCCCCCCCCCCC(=O)CCCCCCC[C@@H](O)[C@@H](C)N)O[C@@H]1O[C@H](CO)[C@H](O)[C@H](O)[C@H]1O; assay = resazurin; test system = ATCC 19606; conditions = 50 µM; quantity = growth inhibition; value = 98 ± 0.07%
SMILES = Oc1c(Br)cc(Br)c2nc3cc(Cl)ccc3nc12; assay = microbial growth; test system = 19606; quantity = IC50; value = 56.7 µM
SMILES = O=C(O)CN(CC(=O)O)CP(=O)(O)O; test system = NDM-2 producer; conditions = 32 µg/mL, added: meropenem; quantity = meropenem MIC; value = 2 µg/mL
SMILES = CCc1cc(CCN)nc(-c2nc(=O)c3ccc(F)cc3s2)c1; assay = cell growth, inhibitor; test system = NCTC 13424 XDR; conditions = 5% CO2; quantity = EC50; value = > 100 µM
SMILES = C[C@@H](N)[C@H](O)CCCCCCCC(=O)CCCCCCCCCCCCCC[C@@H](O[C@@H]1O[C@H](CO)[C@H](O)[C@H](O)[C@H]1O)[C@H](N)CO; assay = resazurin; test system = ATCC 19606; conditions = 50 µM; quantity = growth inhibition; value = 97 ± 0.25%
